# Experimental data of several laboratories.
# Every numbered part comes from another study and shows a few of its results, in no order. Changes are numbered by the printed parent chain.

# Block 1
# Target: HLA class I histocompatibility antigen, A alpha chain, allele A*80:01 (Homo sapiens, UniProt P04439)
# Effect on: peptide-MHC binding
# Molecule type: peptide
# Tested at: concentration not given
Sequence,binding
FRRVAHSSL,inactive
TEGEGRVIL,inactive
YMKFFGNFK,inactive
RRAYSGKQY,inactive
DLRPYGLIK,inactive
KAYKIISLK,inactive
YTDKIAMSY,active
SLFTEQAFY,active
KHDEEFCDM,inactive
VTFGARASF,inactive
QTDNQLAVF,inactive
LMQCWQLLA,inactive
TFMDHVLRY,inactive
FNCGGEFFY,inactive
FHIVNQESL,inactive
WMRGRGRAL,inactive
KLGEGFKSL,inactive
LTDSSTLLV,inactive
VILNYIPVL,inactive
AMDTHLYFE,inactive
YCPGTTVTL,inactive
DTPGERNPY,inactive
EVIRATYPS,inactive
SSDDFALIV,inactive
LMLHQQYNQ,inactive

# Block 2
# Target: TAR DNA-binding protein 43, full length, His tag (TARDBP, Homo sapiens, UniProt Q13148, residues 1-414)
# Technique: RNA Bind-n-Seq
# Molecule type: RNA
# Matrix: in vitro
# Tested at: 20 nM
# Setting: 6-mer, flanks averaged, single round
# With: 150 mM LiCl
# Reference: input library
# Direction: higher = stronger binding
Strand,6-mer enrichment (R)
UUACCU,0.955
GUAGAA,1.16
GCCUCA,0.918
CGUAAA,0.828
UCAGAC,0.797
AGCAUG,1
GCCAUU,0.954
UAAUCG,0.861

# Block 3
# Target: CCNB2, cyclin fold, Cln2 fusion (human)
# Technique: yeast growth competition, sequencing
# Matrix: yeast
# Setting: strong parent motif
# Reference: not given
# Direction: higher = stronger binding
# Parent: viral docking peptide; YKVKRRLVFGADD; partner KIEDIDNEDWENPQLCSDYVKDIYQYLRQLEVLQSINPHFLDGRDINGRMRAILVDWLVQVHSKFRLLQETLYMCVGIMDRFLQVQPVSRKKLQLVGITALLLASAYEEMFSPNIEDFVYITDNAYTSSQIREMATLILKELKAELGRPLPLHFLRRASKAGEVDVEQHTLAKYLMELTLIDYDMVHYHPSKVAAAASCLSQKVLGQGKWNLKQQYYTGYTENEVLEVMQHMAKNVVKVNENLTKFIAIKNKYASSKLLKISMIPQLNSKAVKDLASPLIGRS
Change,normalised enrichment score
YKVKRRLVWGADD [F9W],0.92
YKVKRRLVFDADD [G10D],3.57
YKVKRRLVFGAVD [D12V],1.02
YKVKRRLEFGADD [V8E],2.36
YKVKRRLVFGRDD [A11R],1.42
YKVKRALVFGADD [R6A],0.628
YKVKRRLNFGADD [V8N],1.7
YKVKRRLVFGAWD [D12W],0.981
YKNKRRLVFGADD [V3N],0.56
YLVKRRLVFGADD [K2L],1.75
YKVKRRLVHGADD [F9H],0.483
YKYKRRLVFGADD [V3Y],0.337
YKVKRRLVFKADD [G10K],1.59
YKVKRRLVIGADD [F9I],0.683
YKVGRRLVFGADD [K4G],0.264
YKVKIRLVFGADD [R5I],0.23
YKVKRRLVMGADD [F9M],0.606
YKVKRRLVYGADD [F9Y],1.16
YKLKRRLVFGADD [V3L],0.927
YKVKHRLVFGADD [R5H],0.194
YKVVRRLVFGADD [K4V],0.404
YKVKRRLVFYADD [G10Y],1.57
YKVKRELVFGADD [R6E],0.394
YKVWRRLVFGADD [K4W],0.522
YKMKRRLVFGADD [V3M],0.365

# Other studies, line by line
Structure (SMILES),organism,strain,matrix,tested at,setting,measurement,result
CCOc1ccc(Nc2c3c(nc4ccccc24)CCC3)cc1,Leishmania donovani,DD8 resistant line,promastigotes,66.66 µM,resistance confirmation,inhibition,100%

# Repeated from above (block 3):
Change,normalised enrichment score
YKYKRRLVFGADD [V3Y],0.337
YKLKRRLVFGADD [V3L],0.927
YKVGRRLVFGADD [K4G],0.264
YKMKRRLVFGADD [V3M],0.365
YKVKRRLVIGADD [F9I],0.683
YKVKRELVFGADD [R6E],0.394
YKVKRRLVWGADD [F9W],0.92
YKVKRALVFGADD [R6A],0.628
YKVVRRLVFGADD [K4V],0.404
